Values quoted from earlier work as cited in several papers.
Lines come from different studies, so protocols differ.

Structure (SMILES) = CN(C)CC/N=C1\C[C@H]2CC[C@]1(C)C2(C)C; cell line = MDCK; assay = cytotoxicity; quantity = CC50; value = > 2250 µM
Structure (SMILES) = CC[C@H](C)[C@@H]1NC(=O)CNC(=O)[C@@H]2CSSC[C@@H]3NC(=O)[C@H](Cc4ccc(O)cc4)NC(=O)[C@@H](NC(=O)[C@H](CC(C)C)NC(=O)[C@H](CC(C)C)NC(=O)CN)CSSC[C@@H](C(=O)N4CCC[C@H]4C(=O)N[C@@H](CCCNC(=N)N)C(=O)N[C@@H](CCCNC(=N)N)C(=O)O)NC(=O)[C@H](CSSC[C@H](NC(=O)[C@H](Cc4c[nH]cn4)NC(=O)CNC(=O)[C@H](CCCCN)NC(=O)[C@H](CCCNC(=N)N)NC3=O)C(=O)N[C@@H](CCCCN)C(=O)N[C@@H](CCCNC(=N)N)C(=O)NCC(=O)N[C@@H](CCC(=O)O)C(=O)N[C@@H](CCCNC(=N)N)C(=O)N[C@@H](C(C)C)C(=O)N[C@@H](CCCNC(=N)N)C(=O)NCC(=O)N[C@@H]([C@@H](C)O)C(=O)N2)NC(=O)[C@H](Cc2ccc(O)cc2)NC(=O)[C@H](CC(C)C)NC(=O)[C@H](Cc2ccccc2)NC(=O)[C@H](CCCNC(=N)N)NC1=O; cell line = RAW264.7; setting = NG; quantity = cytotoxicity; value = not toxic
Structure (SMILES) = CC(C)C[C@@H]1NC(=O)[C@H](C(C)C)NC(=O)[C@H](CO)NC(=O)CNC(=O)CNC(=O)[C@H](CCCNC(=N)N)NC(=O)[C@@H]2CCCN2C(=O)[C@@H](NC(=O)CC[C@H](NC(=O)c2ccc(N(C)Cc3cnc4nc(N)nc(N)c4n3)cc2)C(=O)O)C(C)(C)SSC[C@@H](C(=O)O)NC(=O)CNC(=O)[C@H]([C@@H](C)O)NC(=O)[C@H](C(C)C)NC1=O; cell line = MOLT-3; setting = concentration not given; scale = baseline: methotrexate over cpd, fold lower than methotrexate; quantity = cytotoxicity ratio; value = 45 fold
Structure (SMILES) = O=C(O)c1cccc(CP(=O)(O)O)n1; cell line = BL-C-1 African green monkey kidney; setting = concentration not given; quantity = cytotoxicity; value = not toxic
Structure (SMILES) = CN(C)CCC/N=C1\C[C@H]2CC[C@]1(C)C2(C)C; cell line = MDCK; assay = cytotoxicity; quantity = CC50; value = > 2120 µM
Structure (SMILES) = COc1cc(OC)c(OC)cc1/C=C/C(=O)/C=C/c1cc2ccccc2cc1Cl; cell line = PC-3; assay = cytotoxicity; quantity = IC50; value = 3.12 µM
Structure (SMILES) = CC[C@H](C)[C@H](NC(=O)[C@H](CCCCN)NC(=O)[C@H](CCC(=O)O)NC(=O)[C@H](CCCCN)NC(=O)[C@H](CO)NC(=O)[C@H](CCCCN)NC(=O)[C@H](CCCNC(=N)N)NC(=O)[C@H](Cc1ccccc1)NC(=O)[C@H](Cc1ccccc1)NC(=O)[C@H](CC(=O)O)NC(=O)CNC(=O)[C@H](CC(C)C)NC(=O)[C@@H](N)CC(C)C)C(=O)NCC(=O)N[C@@H](CCCCN)C(=O)N[C@@H](CCC(=O)O)C(=O)N[C@@H](Cc1ccccc1)C(=O)N[C@@H](CCCCN)C(=O)N[C@@H](CCCNC(=N)N)C(=O)N[C@H](C(=O)N[C@H](C(=O)N[C@@H](CCC(N)=O)C(=O)N[C@@H](CCCNC(=N)N)C(=O)N[C@H](C(=O)N[C@@H](CCCCN)C(=O)N[C@@H](CC(=O)O)C(=O)N[C@@H](Cc1ccccc1)C(=O)N[C@@H](CC(C)C)C(=O)N[C@@H](CCCNC(=N)N)C(=O)N[C@@H](CC(N)=O)C(=O)N[C@@H](CC(C)C)C(=O)N[C@H](C(=O)N1CCC[C@H]1C(=O)N[C@@H](CCCNC(=N)N)C(=O)N[C@H](C(=O)N[C@@H](CCC(=O)O)C(=O)N[C@@H](CO)C(=O)O)[C@@H](C)O)C(C)C)[C@@H](C)CC)C(C)C)[C@@H](C)CC; cell line = human peripheral blood leukocytes; assay = cell death; setting = 10% FBS; quantity = cytotoxic concentration; value = > 125 µg/mL
Structure (SMILES) = C1CCCCCC2(CCCCC1)OOCCCOO2; cell line = Huh-7; assay = cytotoxicity; quantity = CC50; value = 0.5 to 9.3 µM
Structure (SMILES) = Nc1c(C(=O)NCc2ccc(F)cc2F)c(=O)n(O)c2ncccc12; cell line = HOS; assay = measured: ATP level; quantity = CC50; value = > 250 µM
Structure (SMILES) = F[P-](F)(F)(F)(F)F.OCP(CO)CO.OCP(CO)CO.OCP(CO)CO.OCP(CO)CO.[Cu+]; cell line = human cancer cells; scale = baseline: cisplatin; quantity = cytotoxic potency ratio; value = > 40 fold

For quick reference, copied from above:
Structure (SMILES) = CC(C)C[C@@H]1NC(=O)[C@H](C(C)C)NC(=O)[C@H](CO)NC(=O)CNC(=O)CNC(=O)[C@H](CCCNC(=N)N)NC(=O)[C@@H]2CCCN2C(=O)[C@@H](NC(=O)CC[C@H](NC(=O)c2ccc(N(C)Cc3cnc4nc(N)nc(N)c4n3)cc2)C(=O)O)C(C)(C)SSC[C@@H](C(=O)O)NC(=O)CNC(=O)[C@H]([C@@H](C)O)NC(=O)[C@H](C(C)C)NC1=O; cell line = MOLT-3; setting = concentration not given; scale = baseline: methotrexate over cpd, fold lower than methotrexate; quantity = cytotoxicity ratio; value = 45 fold
Structure (SMILES) = CC[C@H](C)[C@@H]1NC(=O)CNC(=O)[C@@H]2CSSC[C@@H]3NC(=O)[C@H](Cc4ccc(O)cc4)NC(=O)[C@@H](NC(=O)[C@H](CC(C)C)NC(=O)[C@H](CC(C)C)NC(=O)CN)CSSC[C@@H](C(=O)N4CCC[C@H]4C(=O)N[C@@H](CCCNC(=N)N)C(=O)N[C@@H](CCCNC(=N)N)C(=O)O)NC(=O)[C@H](CSSC[C@H](NC(=O)[C@H](Cc4c[nH]cn4)NC(=O)CNC(=O)[C@H](CCCCN)NC(=O)[C@H](CCCNC(=N)N)NC3=O)C(=O)N[C@@H](CCCCN)C(=O)N[C@@H](CCCNC(=N)N)C(=O)NCC(=O)N[C@@H](CCC(=O)O)C(=O)N[C@@H](CCCNC(=N)N)C(=O)N[C@@H](C(C)C)C(=O)N[C@@H](CCCNC(=N)N)C(=O)NCC(=O)N[C@@H]([C@@H](C)O)C(=O)N2)NC(=O)[C@H](Cc2ccc(O)cc2)NC(=O)[C@H](CC(C)C)NC(=O)[C@H](Cc2ccccc2)NC(=O)[C@H](CCCNC(=N)N)NC1=O; cell line = RAW264.7; setting = NG; quantity = cytotoxicity; value = not toxic
